Assay results of several laboratories.
Parts stem from different laboratories: compare values within a part only.

Block 1
Target: Histone acetyltransferase KAT6A, winged helix 2, GST fusion (KAT6A, Homo sapiens, UniProt Q92794, residues 85-181)
Technique: protein binding microarray
Molecule type: double-stranded DNA, one strand shown
Medium: in vitro
Concentration: not given
Setting: 8-mer, flanks averaged, mean of 2 arrays, mostly near background
Relative to: not given
Reading: higher = stronger binding
Construct (chain): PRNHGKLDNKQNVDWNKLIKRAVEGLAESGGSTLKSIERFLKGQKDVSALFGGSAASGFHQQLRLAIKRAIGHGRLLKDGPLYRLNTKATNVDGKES
Oligonucleotide	E-score
GACAAGCA	0.0726
ATGAAACG	-0.0394
CGTTGCCC	-0.00436
GAGGAATA	0.121
CTTTCGTA	-0.206
GTTTAAAA	0.0328
TGTAGAAA	-0.035
GATAGGCC	-0.129
GCACGAGC	0.0129
AGCTCGGG	0.165
AGACTATC	-0.0907
CTACTAGA	-0.0868
CGAGAATA	-0.0736
CGTCATGC	0.0606
ATCCTCCG	-0.16
AACAATGT	-0.147
GTTAGTTA	-0.00799
AACGTTGC	-0.193
GTATTATA	0.124
AGAACGAG	0.101
CCCCGCAG	0.266
ACTGTTCC	-0.161
AACGGGAT	-0.0452

Block 2
Target: Fragile X messenger ribonucleoprotein 1, C-terminal low-complexity region (Fmr1, Mus musculus, UniProt P35922)
Technique: RNA Bind-n-Seq
Molecule type: RNA
Medium: in vitro
Concentration: 200 nM
Setting: whole 134-nt RNA, ends assumed
With: 150 mM KCl
Relative to: input library
Reading: higher = stronger binding
Oligonucleotide	log2 enrichment
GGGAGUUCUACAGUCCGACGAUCUCCUGUGCUACACAUCGUAUGUACCGAAUCGGGGUUUUUUGGUUUUUUGGGGUUUUUUGGAAAGUAUUAUGUUACGCCGUUCGGAUCUGCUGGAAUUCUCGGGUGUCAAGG	0.0113
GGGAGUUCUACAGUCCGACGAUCCUGUGCUACACAUCGUAUGUACCGAAUCGGGGAAAAAAGGGAAAAAAGGGGAAAAAAGGGGAAAGUAUUAUGUUACGCCGUUCGGAUCUGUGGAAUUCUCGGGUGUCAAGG	-0.289
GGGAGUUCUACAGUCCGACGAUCGUCCUGUGCUACACAUCGUAUGUACCGAAUCGGAAAAAAAGGAAAAAAAGGUUUUUGGAAAGUAUUAUGUUACGCCGUUCGGAUCUGCACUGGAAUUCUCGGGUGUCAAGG	-1.03
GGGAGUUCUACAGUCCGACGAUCUUGUAUUAAGACAACGCUCCUCGACUUAGAUGCCUUGGCAAGACAUUUGGCUGACUGUAUUCGAAGGUAAAAUUUGAUGUGAAAUUGACAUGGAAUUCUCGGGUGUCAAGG	-0.638
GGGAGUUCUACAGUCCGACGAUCUGGCCCUGGUGGCAUGCCGGGAGGAAGAGGUGGCCUCAUGGAUCGUGGUGGUCCCGGUGGAAUGUUCAGAGGUGGCCGUGGUGGAGACAGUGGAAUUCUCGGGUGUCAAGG	-0.127
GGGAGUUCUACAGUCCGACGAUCUGGCCCUGCUGGCAUGCGGGGAGGAAGAGGUGGCCUCAUGGAUCGUGGUGGUCCCGGUGGAAUGUUCAGAGGUGGCCGUGGUGGAGACAGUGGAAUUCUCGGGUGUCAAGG	-0.336
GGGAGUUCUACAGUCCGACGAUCUGGCCCUGGUGGCAUGCGGGGAGGAAGAGGUGGCCUCAUGGAUUGUGGUGGUCCCGGUGGAAUGUUCAGAGGUGGCCGUGGUGGAGACAGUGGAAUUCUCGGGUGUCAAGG	0.483
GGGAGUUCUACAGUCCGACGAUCAAGUCCUGUGCUACACAUCGUAUGUACCGAAUCGGUUUUUUUGGAAAAAGGAAAGGAAAGUAUUAUGUUACGCCGUUCGGAUCUGCACUUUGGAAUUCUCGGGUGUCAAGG	-1.06
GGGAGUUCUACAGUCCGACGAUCAGUCCUGUGCUACACAUCGUAUGUACCGAAUCGGUUUGGUUUUUUUGGAAAAAAAGGAAAGUAUUAUGUUACGCCGUUCGGAUCUGCACUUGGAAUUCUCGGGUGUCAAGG	-1
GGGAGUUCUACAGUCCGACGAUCUAACUUUAGAGGAGGAUCUGAUGGAUAUGGCAGUGGACGUGGAUUUGGGGAUGGCUAUAAUGGGUAUGGAGGAGGACCUGGAGGUGGCACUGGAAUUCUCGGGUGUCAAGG	0.121
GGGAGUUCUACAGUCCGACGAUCUCCUGUGCUACACAUCGUAUGUACCGAAUCGGGGUGGGGAAAAAGGGGAAAAAAAGGGGAAAGUAUUAUGUUACGCCGUUCGGAUCUGCAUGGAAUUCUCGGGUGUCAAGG	0.503
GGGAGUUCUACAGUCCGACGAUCGUCCUGUGCUACACAUCGUAUGUACCGAAUCGGGAAAAAAAGGGUGGGUUUUUUUGGGAAAGUAUUAUGUUACGCCGUUCGGAUCUGCACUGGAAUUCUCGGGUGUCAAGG	0.0856
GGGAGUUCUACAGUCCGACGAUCCACAGACAACACGCACCCACACAGACACAGAGGUAAGGGGUUGGGAUGGGGACAGGGUGCACAGCAGGGCGGGGUAGGACCCCAGCCCCUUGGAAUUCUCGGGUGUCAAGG	1.33
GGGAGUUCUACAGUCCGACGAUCCCUCAAGUCCUGUGCUACACAUCGUAUGUACCGAAUCGGUUGGUUGGGUUGGAAAGUAUUAUGUUACGCCGUUCGGAUCUGCACUUCCAGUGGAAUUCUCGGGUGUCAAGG	-0.00829

Block 3
Target: RNA binding protein fox-1 homolog 2, RRM domain, GST-SBP tag (RBFOX2, Homo sapiens, UniProt O43251-10, residues 100-194)
Technique: RNA Bind-n-Seq
Molecule type: RNA
Medium: in vitro
Concentration: 365 nM
Setting: natural RNA segment, single round, ends assumed
Relative to: no-protein control
Reading: higher = stronger binding
Residues (chain): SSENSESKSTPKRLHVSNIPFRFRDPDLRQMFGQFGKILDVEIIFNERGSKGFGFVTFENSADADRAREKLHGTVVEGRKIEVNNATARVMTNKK
Oligonucleotide	RBNS enrichment (R)
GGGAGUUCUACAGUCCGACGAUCAACCCAAAAUUCAAUCAACAAUUCUGUCUUAUUGAAGAGUUGCUAGGAUUCAGAGUAAAACUCAAAGGAUUCAGUUUGAGCCUAGAAUGAUGGUUAGACUUGUAGUCACUUGGAAUUCUCGGGUGCCAA	0.252
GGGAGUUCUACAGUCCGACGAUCGUGGGAGAAGUGUGCACACCUUUGAGUCCCUUCCCUCAAGGUUAAAGCUCCUGUCAGACUCUCAGAAGGGUCUGUGGGUGUUGUAUAUUAGGCAAACAGGGGAAAGCUUAUGGAAUUCUCGGGUGCCAA	0.456
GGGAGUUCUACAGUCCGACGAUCUGAUUCAACUCUCAAUUUUCUUUAUGCAUCAUGGUAAAGCAUUGCAGCAGUGUUGUUUUGUUUGAAGUGCACACUCUAUGGUACGAGGUGUUUAGUAUACCCAAGCAGAUUGGAAUUCUCGGGUGCCAA	0.472
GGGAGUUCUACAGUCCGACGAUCGAUCCACUGCAGAAAGUUGUGUGCUUCAACCACGAUAAUACCCUGCUUGCCACUGGAGGAACAGAUGGCUACGUCCGUGUCUGGAAGGUGCCCAGCCUGGAGAAGGUUCUUGGAAUUCUCGGGUGCCAA	0.41
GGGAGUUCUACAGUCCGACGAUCACAGGGAGAGGUGGGUAAUAAACUUCCUGUAAUGACAGUGUUUGGCAUUUCUUUAUGGAUGGAAUUGGAACAUGAACAAGACCAUGUCCAGCGUUUUUACUGUGAAUGUAUGGAAUUCUCGGGUGCCAA	1.53
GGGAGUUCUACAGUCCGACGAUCUUUGUGCCCCCUUUAGGAAGGAAAAGAAUACACCUACGAUGUGCCAGGCACUGUGUUAGGCGCUUUUAUAUAGAUCCUCGUUAGGAUGAGACUAAGGGAUGAGGACAUCUUGGAAUUCUCGGGUGCCAA	0.229
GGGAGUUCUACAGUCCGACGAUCUUACUCUAGGGUAUUGAAUAAAUUUAGUCUUAUUAGAAAAAUAAAAGUUGUCUCAUGACUUUGUUUUGAGGUCUCUGGUAAGAAUUUUUUCAGGACCUGGAGAGAUAGCUUGGAAUUCUCGGGUGCCAA	0.502
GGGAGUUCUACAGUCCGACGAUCGACUCGGUUUCUCCAAACUGAAGCAGCCUCUCCCCAGGUCCAGCUCUGGAGGGGAGGGGGAUCCGACUGCUUUGGACCUAAAUGGCCUCAUGUGGCUGGAAGAUCCUGCGUGGAAUUCUCGGGUGCCAA	0.321
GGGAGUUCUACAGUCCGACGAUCCAGAAGUGAACCAAGGGUUAGACGCCAGAGGUUGGGCUUCUGUUAGAGUGGCUUCAAAACAUGAGCCUUAUGGGAAGUAGCCUUAAAAAAAGAAUGGGUAUACGCAGUGAUGGAAUUCUCGGGUGCCAA	0.423
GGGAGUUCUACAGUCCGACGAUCUGCCGUGCUUACGUUAUUUAUUAGCUGUAGCCAUUUCUGUCUUGGCUCUCACUUCCUCUGCCCUUCCCUCUGAGCAGCCAUAGUGACAUUUACUAUGAAUUUACUUCCUCUGGAAUUCUCGGGUGCCAA	0.253
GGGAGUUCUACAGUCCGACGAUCUGCUGCCAGUUUCUUUUUUGGUUCCUUUCUGCCCAGGACUGCAUGAGUUUCCCAGCCCCAAGUGGGGGCUGCUAGGCCCUUCCUCCCUGCCUCUGGGAACCGGGCUGGUGUGGAAUUCUCGGGUGCCAA	1
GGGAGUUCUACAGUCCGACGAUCGAAGCAGAGUAAAGCUUACCCCCCAAACUGUGGUCCAGCUGGACCCCUUCUUUAAUUCUUGCCUAACUUAAUUAUUUUCAGGACCCUUCAAGUGCCAGGUGGAAUUUACAUGGAAUUCUCGGGUGCCAA	0.695

Block 4
Target: Interferon regulatory factor 3, full length, phosphomimetic (IRF3, Homo sapiens, UniProt Q14653, residues 1-427, S386D/S396D/S398D/S402D/T404D/S405D)
Technique: protein-binding microarray
Molecule type: double-stranded DNA, one strand shown
Medium: in vitro
Concentration: 2540 nM top
Setting: 60-bp whole probe
With: salmon DNA 0.4 mg/ml
Relative to: random background probes
Reading: higher = stronger binding
Constant ends, left off below: GCCTAGCAC … GTCTTGATTCGCTTGACGCTGCTG
Residues (chain): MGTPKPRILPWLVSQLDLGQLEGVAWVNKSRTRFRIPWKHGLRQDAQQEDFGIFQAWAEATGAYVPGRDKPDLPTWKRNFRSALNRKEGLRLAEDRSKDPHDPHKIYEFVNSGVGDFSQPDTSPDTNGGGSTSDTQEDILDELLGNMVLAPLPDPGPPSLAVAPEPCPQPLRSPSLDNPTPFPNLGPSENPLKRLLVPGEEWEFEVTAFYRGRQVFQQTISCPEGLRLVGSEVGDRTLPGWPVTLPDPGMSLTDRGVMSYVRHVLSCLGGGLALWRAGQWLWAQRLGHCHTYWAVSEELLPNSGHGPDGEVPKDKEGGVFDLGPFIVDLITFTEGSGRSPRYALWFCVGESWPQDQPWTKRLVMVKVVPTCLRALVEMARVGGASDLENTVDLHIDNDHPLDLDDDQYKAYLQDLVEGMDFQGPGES
Oligonucleotide	fitted relative affinity
GATGGTATCGGGTTTCGGGACGTGCTA	2.87 z-score
TCATGGTTGAACATGAAACTGTGCTAG	-0.377 z-score
TCATGAATGCCCTCTAACACTGTGCTA	-0.532 z-score
CACGATATCAGTTTCGAGACGTGCTAG	3.25 z-score
GTACCACTCCAGTTCTGGGAGTGCTAG	1.25 z-score
TTAGGTCTCGGTCGCGGTTAGTGCTAG	-0.289 z-score
TTAGGTTTCCATTTCCTTTAGTGCTAG	8.97 z-score
TAGAACTTCTCCACTGAATGAGTGCTA	-0.289 z-score
TCACATTGCCTGTTTTTCACTGTGCTA	0.489 z-score
GACGATTTCAGACTGAAGACGTGCTAG	1.03 z-score
TCAACTTTGGTTTGTACACTGTGCTAG	0.0625 z-score
TCAGGTATCGGGTATCGGTTAGTGCTA	2.37 z-score
GACGATCTCAGACTGGAAACGTGCTAG	0.369 z-score
TTAGAACTGAATATCGATTAGTGCTAG	0.0819 z-score
TTAGGTATCGGTATCAGTTAGTGCTAG	4.24 z-score
TGGGATTTTGTCCTCCCCTCGTGCTAG	-0.642 z-score
TCATTTCTGAATGCTCCCACTGTGCTA	2.16 z-score
TTCACTTTCCAAAGCGTGAGGTGCTAG	4.47 z-score
TATTATATCTGTGTTATTAAGTGCTAG	0.766 z-score
TTAGGTTTCCTTTGCCTTTAGTGCTAG	4.97 z-score
GACGGACTGGGCACTGGGGACGTGCTA	-1.18 z-score
GTGAAATAAGGGAGGCCTAGGTGCTAG	-0.828 z-score

Some of these lines once more (block 4):
Oligonucleotide	fitted relative affinity
GACGATCTCAGACTGGAAACGTGCTAG	0.369 z-score
TTAGAACTGAATATCGATTAGTGCTAG	0.0819 z-score
TTAGGTATCGGTATCAGTTAGTGCTAG	4.24 z-score
TGGGATTTTGTCCTCCCCTCGTGCTAG	-0.642 z-score
TCATTTCTGAATGCTCCCACTGTGCTA	2.16 z-score
TTCACTTTCCAAAGCGTGAGGTGCTAG	4.47 z-score
